Experimental data collected from several papers.
Numbered parts are unrelated; each lists some results of a single study. “And” joins repeats or separate records; there may be more than shown.
Chain of UniProt Q13043 (whole entry, looked up): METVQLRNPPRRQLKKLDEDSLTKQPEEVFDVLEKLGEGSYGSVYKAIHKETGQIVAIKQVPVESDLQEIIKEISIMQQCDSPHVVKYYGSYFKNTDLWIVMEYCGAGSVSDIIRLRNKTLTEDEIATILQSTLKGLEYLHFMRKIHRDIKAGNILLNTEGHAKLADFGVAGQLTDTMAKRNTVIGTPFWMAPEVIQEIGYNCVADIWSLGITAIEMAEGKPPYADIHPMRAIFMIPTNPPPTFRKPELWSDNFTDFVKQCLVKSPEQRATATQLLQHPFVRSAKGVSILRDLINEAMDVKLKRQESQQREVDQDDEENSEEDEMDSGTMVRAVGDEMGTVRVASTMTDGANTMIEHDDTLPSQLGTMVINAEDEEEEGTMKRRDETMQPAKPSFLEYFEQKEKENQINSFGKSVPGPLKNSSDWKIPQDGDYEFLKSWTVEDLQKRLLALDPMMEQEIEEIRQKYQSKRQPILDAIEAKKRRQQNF
Chain of UniProt Q14680 (whole entry, looked up): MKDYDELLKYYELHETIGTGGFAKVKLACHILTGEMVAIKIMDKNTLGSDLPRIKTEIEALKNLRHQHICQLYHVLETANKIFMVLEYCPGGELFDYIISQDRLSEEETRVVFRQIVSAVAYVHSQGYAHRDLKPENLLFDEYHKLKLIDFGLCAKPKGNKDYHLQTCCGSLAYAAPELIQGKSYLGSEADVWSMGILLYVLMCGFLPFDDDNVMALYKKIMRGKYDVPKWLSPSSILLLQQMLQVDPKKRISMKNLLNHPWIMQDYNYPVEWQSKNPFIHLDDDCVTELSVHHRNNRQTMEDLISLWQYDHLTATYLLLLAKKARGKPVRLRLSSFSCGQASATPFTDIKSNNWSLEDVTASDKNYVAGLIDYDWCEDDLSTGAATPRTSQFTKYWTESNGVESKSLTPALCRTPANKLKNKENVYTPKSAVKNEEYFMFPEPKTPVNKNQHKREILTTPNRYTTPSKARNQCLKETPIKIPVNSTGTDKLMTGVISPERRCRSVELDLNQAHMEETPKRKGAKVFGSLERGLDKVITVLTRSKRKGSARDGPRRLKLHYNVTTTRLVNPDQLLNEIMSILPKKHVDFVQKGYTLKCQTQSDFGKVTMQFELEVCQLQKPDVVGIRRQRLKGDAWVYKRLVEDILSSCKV
Chain of UniProt P24723 (whole entry, looked up): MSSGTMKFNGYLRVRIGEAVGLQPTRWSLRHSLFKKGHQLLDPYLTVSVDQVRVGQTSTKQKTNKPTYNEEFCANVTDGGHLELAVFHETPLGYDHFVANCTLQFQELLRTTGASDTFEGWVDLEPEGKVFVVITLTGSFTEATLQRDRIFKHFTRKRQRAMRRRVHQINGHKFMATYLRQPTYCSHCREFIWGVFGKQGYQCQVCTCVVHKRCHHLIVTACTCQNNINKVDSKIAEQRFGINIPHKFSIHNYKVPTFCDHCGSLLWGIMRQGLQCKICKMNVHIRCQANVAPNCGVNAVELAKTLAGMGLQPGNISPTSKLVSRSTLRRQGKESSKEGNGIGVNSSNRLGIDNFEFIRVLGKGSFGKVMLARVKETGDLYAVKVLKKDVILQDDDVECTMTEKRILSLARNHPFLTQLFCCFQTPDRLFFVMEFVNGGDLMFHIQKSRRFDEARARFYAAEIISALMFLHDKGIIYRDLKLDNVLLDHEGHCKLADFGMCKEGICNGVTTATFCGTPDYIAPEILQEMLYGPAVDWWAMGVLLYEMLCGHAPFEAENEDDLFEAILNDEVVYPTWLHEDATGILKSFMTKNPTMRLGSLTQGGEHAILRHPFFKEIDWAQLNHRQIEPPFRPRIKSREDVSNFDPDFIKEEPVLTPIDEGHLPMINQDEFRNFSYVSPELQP
Chain of UniProt P54756 (whole entry, looked up): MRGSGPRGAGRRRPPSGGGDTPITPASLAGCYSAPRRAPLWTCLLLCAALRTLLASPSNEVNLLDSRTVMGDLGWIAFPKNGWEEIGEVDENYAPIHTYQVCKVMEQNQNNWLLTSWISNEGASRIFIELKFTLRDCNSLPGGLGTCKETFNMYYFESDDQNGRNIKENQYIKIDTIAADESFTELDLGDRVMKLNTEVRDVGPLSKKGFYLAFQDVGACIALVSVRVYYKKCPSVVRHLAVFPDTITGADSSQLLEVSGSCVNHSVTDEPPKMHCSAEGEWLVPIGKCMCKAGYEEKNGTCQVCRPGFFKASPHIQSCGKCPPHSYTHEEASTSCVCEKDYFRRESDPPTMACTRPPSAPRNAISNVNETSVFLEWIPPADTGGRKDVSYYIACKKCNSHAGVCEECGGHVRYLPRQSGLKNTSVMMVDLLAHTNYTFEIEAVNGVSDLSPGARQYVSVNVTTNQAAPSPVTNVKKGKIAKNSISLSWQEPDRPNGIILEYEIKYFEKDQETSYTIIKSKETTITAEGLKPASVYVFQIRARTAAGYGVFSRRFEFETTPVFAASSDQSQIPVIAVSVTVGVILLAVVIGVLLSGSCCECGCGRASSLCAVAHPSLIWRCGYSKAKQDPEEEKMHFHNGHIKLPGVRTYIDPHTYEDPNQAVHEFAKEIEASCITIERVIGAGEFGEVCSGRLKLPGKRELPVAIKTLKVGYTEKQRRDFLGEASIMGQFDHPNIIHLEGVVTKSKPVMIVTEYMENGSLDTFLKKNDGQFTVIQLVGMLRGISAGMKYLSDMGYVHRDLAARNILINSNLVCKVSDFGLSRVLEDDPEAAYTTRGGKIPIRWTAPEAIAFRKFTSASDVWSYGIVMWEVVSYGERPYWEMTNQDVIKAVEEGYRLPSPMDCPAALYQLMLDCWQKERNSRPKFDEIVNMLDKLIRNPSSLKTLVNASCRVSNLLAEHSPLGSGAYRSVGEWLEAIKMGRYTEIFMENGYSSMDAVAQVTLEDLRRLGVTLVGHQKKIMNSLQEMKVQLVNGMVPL
Chain of UniProt O94806 (whole entry, looked up): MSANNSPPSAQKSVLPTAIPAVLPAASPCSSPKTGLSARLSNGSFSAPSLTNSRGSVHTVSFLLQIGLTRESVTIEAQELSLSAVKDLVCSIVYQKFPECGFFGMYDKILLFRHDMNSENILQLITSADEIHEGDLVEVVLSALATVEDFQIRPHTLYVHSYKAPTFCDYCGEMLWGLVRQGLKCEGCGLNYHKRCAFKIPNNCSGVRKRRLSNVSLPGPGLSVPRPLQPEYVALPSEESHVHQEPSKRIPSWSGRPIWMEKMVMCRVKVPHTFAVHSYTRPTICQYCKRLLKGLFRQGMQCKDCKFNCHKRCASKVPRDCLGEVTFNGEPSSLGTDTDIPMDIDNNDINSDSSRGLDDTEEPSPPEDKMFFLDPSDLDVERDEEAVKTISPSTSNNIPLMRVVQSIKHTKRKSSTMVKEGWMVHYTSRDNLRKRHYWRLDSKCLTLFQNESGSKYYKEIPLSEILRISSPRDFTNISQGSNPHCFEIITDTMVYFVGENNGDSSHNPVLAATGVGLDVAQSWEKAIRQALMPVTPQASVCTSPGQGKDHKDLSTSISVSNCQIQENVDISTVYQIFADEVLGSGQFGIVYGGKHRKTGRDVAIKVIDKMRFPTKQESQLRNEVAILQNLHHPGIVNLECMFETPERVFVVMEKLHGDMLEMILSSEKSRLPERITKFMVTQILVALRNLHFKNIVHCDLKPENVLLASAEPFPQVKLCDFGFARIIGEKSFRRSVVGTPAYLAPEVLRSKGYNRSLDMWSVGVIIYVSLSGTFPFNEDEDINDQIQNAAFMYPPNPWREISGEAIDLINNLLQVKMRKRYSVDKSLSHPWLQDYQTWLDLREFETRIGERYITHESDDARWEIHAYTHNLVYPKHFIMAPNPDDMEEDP
Chain of UniProt O43781 (whole entry, looked up): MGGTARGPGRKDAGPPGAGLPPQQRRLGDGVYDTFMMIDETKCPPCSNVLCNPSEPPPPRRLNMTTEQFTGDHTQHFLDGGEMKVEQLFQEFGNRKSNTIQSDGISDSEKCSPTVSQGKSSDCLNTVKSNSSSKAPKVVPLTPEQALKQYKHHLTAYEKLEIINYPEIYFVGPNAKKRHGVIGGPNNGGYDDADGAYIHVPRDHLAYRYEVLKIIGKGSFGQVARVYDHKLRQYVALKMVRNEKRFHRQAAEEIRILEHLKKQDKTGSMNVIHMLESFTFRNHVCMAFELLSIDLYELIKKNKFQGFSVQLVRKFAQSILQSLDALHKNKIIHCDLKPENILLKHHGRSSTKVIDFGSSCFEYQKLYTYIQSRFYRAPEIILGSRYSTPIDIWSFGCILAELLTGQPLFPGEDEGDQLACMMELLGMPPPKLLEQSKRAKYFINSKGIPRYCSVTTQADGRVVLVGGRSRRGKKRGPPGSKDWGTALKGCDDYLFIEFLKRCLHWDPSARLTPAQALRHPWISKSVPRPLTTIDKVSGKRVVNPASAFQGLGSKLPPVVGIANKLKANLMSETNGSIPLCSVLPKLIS
Chain of UniProt Q8TDX7 (whole entry, looked up): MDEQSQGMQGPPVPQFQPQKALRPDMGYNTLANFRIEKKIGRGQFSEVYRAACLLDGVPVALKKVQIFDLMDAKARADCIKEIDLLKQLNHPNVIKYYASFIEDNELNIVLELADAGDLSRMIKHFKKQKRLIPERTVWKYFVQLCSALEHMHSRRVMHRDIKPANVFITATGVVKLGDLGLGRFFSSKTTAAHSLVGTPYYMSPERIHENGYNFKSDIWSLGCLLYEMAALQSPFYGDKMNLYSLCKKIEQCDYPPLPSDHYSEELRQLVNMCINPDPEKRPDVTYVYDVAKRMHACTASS

Series 1 — quantity: remaining binding
SMILES: Cc1ccc(O)c(C)c1-c1cnc2[nH]c(-c3cnc(N)nc3)cc2c1C#N
PIK4CB; KINOMEscan; 1000 nM; baseline: control: 4.2%
MKNK2; KINOMEscan; 1000 nM; baseline: control: 32%
CSNK1A1; KINOMEscan; 1000 nM; baseline: control: 31%
SRC; KINOMEscan; 1000 nM; baseline: control: 21%
PKMYT1; KINOMEscan; 1000 nM; baseline: control: 0%
BRAF (Homo sapiens, UniProt P15056, V600E); binding, competition with immobilised ligand; 1 µM: 4.2%
CSNK2A2; KINOMEscan; 1000 nM; baseline: control: 34%
LCK; KINOMEscan; 1000 nM; baseline: control: 58%
FRK; KINOMEscan; 1000 nM; baseline: control: 26%
BRAF; KINOMEscan; 1000 nM; baseline: control: 2.6%
WEE1; KINOMEscan; 1000 nM; baseline: control: 100%

Series 2 — effect on: kinase activity; quantity: inhibition
Compound: CN(C1COC1)C(C)(C)/C=C(\C#N)C(=O)N1CCC[C@H]1Cn1nc(-c2ccc(Oc3ccccc3)cc2F)c2c(N)ncnc21
EPHB2 (Homo sapiens, UniProt P29323); 0.1 µM: 13%
KIT (Homo sapiens, UniProt P10721); 0.1 µM: -9%
EPHA5 (Homo sapiens, UniProt P54756); 1 µM: -5%
DYRK3 (Homo sapiens, UniProt O43781); 1 µM: 1%
NEK7 (Homo sapiens, UniProt Q8TDX7); 1 µM: -7%
JAK3 (Homo sapiens, UniProt P52333); 1 µM: 0%
STK4 (Homo sapiens, UniProt Q13043); 0.1 µM: 6%
PRKCH (Homo sapiens, UniProt P24723); 1 µM: -1%
PRKD3 (Homo sapiens, UniProt O94806); 0.1 µM: 6%
DYRK1B (Homo sapiens, UniProt Q9Y463); 1 µM: -12%
PRKD2 (Homo sapiens, UniProt Q9BZL6); 1 µM: 8%
PLK1 (Homo sapiens, UniProt P53350); 0.1 µM: 10%
RPS6KB2 (Homo sapiens, UniProt Q9UBS0); 1 µM: -2%
PTK2B (Homo sapiens, UniProt Q14289); 1 µM: 3%
MELK (Homo sapiens, UniProt Q14680); 1 µM: 3%
PIM3 (Homo sapiens, UniProt Q86V86); 0.1 µM: 1%

Series 3 — quantity: log2 fold change
SMILES: COCC1CC2C(CCC3C(O)CCC32)c2ccc(O)cc21 (stereo not drawn)
SK-OV-3; microarray, item: AURKA; 25 µM; baseline: untreated: 0.0108
SK-OV-3; DNA microarray, item: C6; 25 µM; baseline: untreated cells: 7.37
PANC-1; DNA microarray, item: KIF20A; 25 µM; baseline: untreated cells: 0.568 and 0.599 and 0.588 and 0.539 and 0.668
PANC-1; DNA microarray, item: C6; 100 µM; baseline: untreated cells: 6.6
SK-OV-3; microarray, item: CDC25B; 100 µM; baseline: untreated: 0.171
PANC-1; DNA microarray, item: GINS1; 100 µM; baseline: untreated cells: 0.0802
A549; microarray, item: AURKA; 100 µM; baseline: untreated: -0.0815
SK-OV-3; DNA microarray, item: CCL1; 25 µM; baseline: untreated: 2.43
A549; DNA microarray, item: CCL8; 25 µM; baseline: untreated cells: 0
A549; microarray, item: RFC3; 100 µM; baseline: untreated: -0.0484
A549; microarray, item: ACTB; 25 µM; baseline: untreated: -0.302
PANC-1; microarray, item: SPC25; 25 µM; baseline: untreated: 0.437
A549; microarray, item: CDC25B; 25 µM; baseline: untreated: -0.13
PANC-1; DNA microarray, item: UBB mRNA; 100 µM; baseline: control: -0.721
PANC-1; DNA microarray, item: MCM7; 100 µM; baseline: untreated cells: -0.302
A549; DNA microarray, item: C6; 100 µM; baseline: untreated cells: 7.37
A549; DNA microarray, item: MCM10; 100 µM; baseline: untreated cells: -0.42
PANC-1; microarray, item: MCM6; 100 µM; baseline: untreated: 0.199
PANC-1; microarray, item: RFC3; 100 µM; baseline: untreated: 0.793
SK-OV-3; DNA microarray, item: MCM7; 100 µM; baseline: untreated cells: -0.37
A549; microarray, item: OLIG2; 100 µM; baseline: untreated: 0
A549; microarray, item: ACTB; 100 µM; baseline: untreated: -0.386
SK-OV-3; microarray, item: CCL11; 100 µM; baseline: untreated: 8.67

Series 4 — cell line: U-87 MG; tested at: concentration not given; baseline: DMSO; quantity: log2 fold change
Compound: CCN1/C(=C/C=C2\CCCC(/C=C/C3=[N+](CC)c4ccccc4C3(C)C)=C2NCCCCCCCCN2CCC(Nc3nc4ccccc4n3Cc3ccc(F)cc3)CC2)C(C)(C)c2ccccc21
item: ZNF827 mRNA: -0.925
item: ADAMTS12 mRNA: -2.25
item: WNT5A mRNA: -0.881
item: UBE2W mRNA: 0.844
item: EVI2A mRNA: -1.48
item: POLE mRNA: -1.7
item: DBF4B mRNA: -1.59
item: POLR2L mRNA: -1.14
item: NUMB mRNA: 0.826
item: JPH2 mRNA: -1.67
item: CD276 mRNA: -1.03
item: TP53RK mRNA: 1.02
item: RAPGEF6 mRNA: 0.872
item: DTX3L mRNA: -0.863
item: NUF2 mRNA: -2.01
item: HDGF mRNA: -1.01
